Experimental data collected from several papers.
Parts stem from different laboratories: compare values within a part only. Changes are numbered by the printed parent chain.

Set 1
Target: RNA binding protein fox-1 homolog 2, RRM domain, GST-SBP tag (RBFOX2, Homo sapiens, UniProt O43251-10, residues 100-194)
Method: RNA Bind-n-Seq
Form: RNA
Medium: in vitro
Concentration: 365 nM
Notes: natural RNA segment, single round, ends assumed
Relative to: no-protein control
Direction: higher = stronger binding
Residues (chain): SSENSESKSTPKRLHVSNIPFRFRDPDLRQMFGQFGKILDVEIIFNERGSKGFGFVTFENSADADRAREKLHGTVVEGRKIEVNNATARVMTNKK
| Oligonucleotide | RBNS enrichment (R) |
| --- | --- |
| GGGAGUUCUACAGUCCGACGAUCAUGAUGCAAGCAGCCAUGACCCACAUUCUGUUGCUGCCUCGUUUAUGCAGAAGGUCUGAUUCCAGAUCGUACCUAAGCAAGACAAUGCUCCAAGACUGUACCAAGCCAAGUGGAAUUCUCGGGUGCCAA | 0.255 |
| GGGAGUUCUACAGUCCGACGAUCGCUGUUCGCCUUCCUGCUGGUUGAUUGCAGAACCACCUCUGAGACCUCUGUACCUGCUCUUGGAAUGUCUCUGUCUUUGCCCUGCCGCCCACUUCCCGUGCCUAUGAUUUUGGAAUUCUCGGGUGCCAA | 3.99 |
| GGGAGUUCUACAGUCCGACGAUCUUGGUUGGGAGGGAAAAGGACAUUAAUUUGAAGUUUCAUGUUAUUCAUGCCAGGAUUGUUUGAUAGAGCAUGAAGGUUUUGUUUACCCAUAAAAGUAUUAGAGGCAGCGUUGGAAUUCUCGGGUGCCAA | 1.5 |
| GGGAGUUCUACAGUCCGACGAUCAGAGCUCCCUUCCCACCUCUCUGCCCAGCCUUGUUACCUCACUUCUGCUCUGGCCAUGGCUGUGAAGGGCCCAGCCAGCUCCCUGUUUUGAUGUUCUGUGCAACAGCUCCUGGAAUUCUCGGGUGCCAA | 0.491 |
| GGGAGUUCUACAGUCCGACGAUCGAUUCUGCUGGAUCUCAAAGAUGUGCCAAGCCAAGGAAAAAGAUACAAGAGCAGAAUAGUACUUAAAAUCCAAACUGCCGCCCAGAUGGGCUUGUUCUUCAUGCCUAACUUGGAAUUCUCGGGUGCCAA | 0.31 |
| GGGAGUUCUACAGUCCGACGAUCCAAAGGUUUUCUUACAUCUUCUUCCAUUGCAUAAUAUGCCUUGUGUAAUAGUUAAGAAAUCAUUUUUUCUGAAUGACUUAAAAAAUUUGAUUGAAAAUUUGGCAAAUUACUGGAAUUCUCGGGUGCCAA | 0.917 |
| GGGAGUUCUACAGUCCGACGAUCUGCUCGUUAUAUUGUGAUCCAGUACAUUUUAUGUUAAAUUGUUUAUCAGCCAUUUCUGUUGUGAACUGUAGAAGAUCUUAAAUUGGGAUUGGACUCACUCUCUGUUCCACUGGAAUUCUCGGGUGCCAA | 0.563 |
| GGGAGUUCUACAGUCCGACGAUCCCCUUCCAUCCCCAUGGGCUUGACUCUCAACCUGUUACUGUAAACUGCGAUCCUUCCCACCGUCAGCCUUUGUUUCUCAUCCUCACCUCCAAAGAUGGGAUUAUUAAUCCUGGAAUUCUCGGGUGCCAA | 1.1 |

Set 2
Target: ABI1, truncated, D143A, DHFR fusion (Arabidopsis thaliana, UniProt P49597)
Method: DHFR PCA, dose-response
Medium: yeast
Notes: Hill fit, mean, not affinity
Added: (+)-ABA, dose series
Direction: lower = more sensitive
Parent: PYL1, truncated, DHFR fusion (Arabidopsis thaliana, UniProt Q8VZS8); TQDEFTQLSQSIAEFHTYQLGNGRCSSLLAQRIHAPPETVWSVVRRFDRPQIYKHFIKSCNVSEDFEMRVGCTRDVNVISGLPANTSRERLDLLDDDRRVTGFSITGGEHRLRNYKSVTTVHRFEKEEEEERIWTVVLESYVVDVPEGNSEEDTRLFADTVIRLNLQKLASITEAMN
| Substitution | ABA EC50 [µM] |
| --- | --- |
| F157L | 7.27 |
| N77S | 1.7 |
| H16N | 397 |
| D144C | 35.4 |
| R24E | 2.61 |
| D92L | 99.3 |
| Y18M | 15.9 |
| A13W | 10.1 |
| F124H | 9.45 |
| E130C | 2.62 |
| V100H | 72.9 |
| R99K | 2.24 |
| S9Y | 10.4 |
| R24Y | 22.4 |
| E130A | 2.7 |
| R90V | 4.25 |
| S9L | 25.3 |
| D75C | 1.08 |
| Q19T | 2.59 |
| F103H | 219 |

Set 3
Target: FOS, bZIP domain (human)
Method: DHFR protein complementation
Medium: yeast
Notes: single substitutions, most at no-binding floor
Relative to: wild-type JUN-FOS pair
Direction: higher = stronger binding
Parent: JUN, bZIP domain (human); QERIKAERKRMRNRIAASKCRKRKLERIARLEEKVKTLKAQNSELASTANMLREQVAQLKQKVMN; partner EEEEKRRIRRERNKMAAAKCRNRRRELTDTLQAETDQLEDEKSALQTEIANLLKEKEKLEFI
| Substitution | binding fitness [natural log] |
| --- | --- |
| A40W | -0.341 |
| A49M | -0.26 |
| E32F | -0.415 |
| V56G | -1.34 |
| L31V | -0.672 |
| K39E | -0.705 |
| R53N | -0.873 |
| A46Y | -0.232 |
| R53A | -0.369 |
| R30S | 0.116 |
| K39V | -0.535 |
| A49R | 0.148 |
| E33R | -0.271 |
| E54Q | -0.256 |
| T48G | -1.06 |
| S47R | 0.0761 |
| E54L | -0.237 |
| L31G | -0.83 |
| L52P | -1.12 |
| V56N | -0.916 |
| A29K | -0.168 |
| S43I | -0.0549 |
| K36C | -0.00689 |
| A40M | -0.119 |
| A40P | -1.33 |

Set 4
Target: Interferon regulatory factor 5, full length, phosphomimetic (IRF5, Homo sapiens, UniProt Q13568-2, residues 1-514, S451D/S453D/S456D/S462D)
Method: protein-binding microarray
Form: double-stranded DNA, one strand shown
Medium: in vitro
Concentration: 940 nM top
Notes: 60-bp whole probe
Added: salmon DNA 0.4 mg/ml
Relative to: random background probes
Direction: higher = stronger binding
Constant ends, left off below: GCCTAGCAC … GTCTTGATTCGCTTGACGCTGCTG
| Oligonucleotide | fitted relative affinity [z-score] |
| --- | --- |
| GACGAAATCGGGTATCGAGACGTGCTA | 0.941 |
| GACGGTATCGGGTATCGGGGCGTGCTA | 5.9 |
| TTAGGACTGGGGACTGCGTTAGTGCTA | -0.279 |
| GACGGTCTCCTTCACCTGACGTGCTAG | 0.449 |
| CTCTGTTTATGTCTGGGTATGTGCTAG | 0.52 |
| TTAGATTTCAGTATCCATTAGTGCTAG | 1.11 |
| TTAGGTTTCCCTTTCCTTTAGTGCTAG | 2.98 |
| TTAGAACTGACTCTCGATTAGTGCTAG | 2.56 |
| GACGATCTCAGTTGCGAGACGTGCTAG | 0.624 |
| TTAGATTCCAGTTTCGATTTGTGCTAG | 8.32 |
| GACGGTCTCGGTTTCGGTACGTGCTAG | 8.79 |
| TCATGTTTCCATCTCTCACTGTGCTAG | 1.61 |
| TCATACATGTGTTTAAAACTGTGCTAG | 0.0311 |
| GACGGTACCGGTTTCGGGACGTGCTAG | 3.99 |
| GCCGGTCTCCTTTTCCTGACGTGCTAG | 0.69 |
| GACGGACTGAGTTTCGAGACGTGCTAG | 3.18 |
| GACGGTCTCGGCTTCGGGACGTGCTAG | 1.53 |
| TCAATTCCAGGGTTTTATACTGTGCTA | 0.254 |
| TCACTTTTCCATTTTGTACTGTGCTAG | 1.91 |

Set 5
Target: CCNB1, cyclin fold, Cln2 fusion (human)
Method: yeast growth competition, sequencing
Medium: yeast
Notes: weak parent motif
Relative to: not given
Direction: higher = stronger binding
Parent: RRM2 docking peptide (human); SKTARRIFQEPTE
| Substitution | normalised enrichment score |
| --- | --- |
| F8A | 0.0942 |
| I7A | 0.315 |
| S1A | 0.134 |
| P11A | -0.00913 |
| T12A | 0.266 |
| R6A | 0.18 |

Mixed results
| Substance | target | test | system | setting | how to read | endpoint | result |
| --- | --- | --- | --- | --- | --- | --- | --- |
| PhoQ, residues 284 288 289 292 302 303 SLANIV | PhoP, residues 12 14 15 18 19 LQHIR (Escherichia coli, UniProt P23836) | Sort-seq, measured: YFP reporter | E. coli | PhoQ-PhoP variant library, added: 10 µM Mg2+ | relative to: high Mg2+ state, higher = stronger signaling | fold induction | 16.1 |

Excerpt of the above (set 3):
| Substitution | binding fitness [natural log] |
| --- | --- |
| E54Q | -0.256 |
| A40W | -0.341 |
| A49R | 0.148 |
| E32F | -0.415 |
